Results collected from several papers.
Compare with care: the assays were run in different laboratories. Numbers after ± are the reported error.

Structure (SMILES) | test system | setting | how to read | tumour growth inhibition [%]
CC(=O)O[C@@]12CO[C@@H]1C[C@H](O)[C@@]1(C)C(=O)[C@H](O)C3=C(C)[C@@H](OC(=O)[C@H](O)[C@@H](NC(=O)OC(C)(C)C)c4ccccc4)C[C@@](O)([C@@H](OC(=O)c4ccccc4)[C@H]21)C3(C)C | mice, MDA-MB-231 xenograft | dose not given, 19 days | reference: vehicle | 64
C=CCn1c(=O)c2cnc(Nc3ccc(N4CCN(C)CC4)cc3)nc2n1-c1ccc2c(n1)[C@@](O)(CC)CC2 | PC-9 xenograft, CB17 SCID mice | oral, 80 mg/kg, day 18, once daily x 19 | – | 68.9
C[C@@H]1COCCN1c1cc([C@]2(O)C[C@H]3CC[C@@H](C2)O3)c2cnn(-c3cc[nH]n3)c2n1 | LoVo xenograft mice | 3 mg/kg once daily for 7 days, day 17 | – | 9.07 ± 16
CCNc1nc2c(c(N3CC(=O)Nc4cc(OC)ccc43)n1)CCC2 | mice, A-375/TxR xenograft | intravenous, 4 mg/kg twice weekly, 3 weeks | – | 76.6
CCCCC(=O)Nc1ccc(-c2ccc3ncn(CCC)c(=O)c3c2)cn1 | mice, HCC827 xenograft | oral, 20 mg/kg daily, six days per week, three weeks | reference: vehicle | 62.8
NCc1cc2c(cc1F)C(=O)N(C1CCC(=O)NC1=O)C2 (stereo not shown) | mice, HCC PDX models | oral, 100 mg/kg twice daily, 4 of 10 models | – | > 50
COc1ccc(OCc2ccc([N+](=O)[O-])cc2)cc1-c1c[nH]c2ncc(-c3cncc(C(=O)N(C)C)c3)cc12 | NSG mice, K562 xenograft | ip, 0.0268 mmol/kg once daily, 16 days | – | 57
NC1(C(=O)N[C@@H](CCO)c2ccc(Cl)cc2)CCN(c2ncnc3[nH]ccc23)CC1 | MDA-MB-468 xenograft, mice | 25 mg/kg | reference: vehicle | 50
CC(=O)O[C@H]1C(=O)[C@@]2(C)[C@H]([C@H](OC(=O)c3ccccc3)[C@]3(O)C[C@H](OC(=O)[C@H](O)[C@@H](NC(=O)c4ccccc4)c4ccccc4)C(C)=C1C3(C)C)[C@]1(OC(C)=O)CO[C@@H]1C[C@@H]2O | C57BL/6J mice Lewis lung carcinoma | intravenous, 25 mg/kg, day 11 | reference: vehicle | 75.3
C=CC(=O)Nc1cc(Nc2ncc(C(=O)OC(C)C)c(-c3cn(C)c4ccccc34)n2)c(OC)cc1N(C)CCN(C)C | NCI-H2073 parental xenograft (EGFR wild-type), BALB/c nude mice | 30 mg/kg once daily, 21 days | – | 105

For quick reference, copied from above:
Structure (SMILES) | test system | setting | how to read | tumour growth inhibition [%]
C=CCn1c(=O)c2cnc(Nc3ccc(N4CCN(C)CC4)cc3)nc2n1-c1ccc2c(n1)[C@@](O)(CC)CC2 | PC-9 xenograft, CB17 SCID mice | oral, 80 mg/kg, day 18, once daily x 19 | – | 68.9
